Results from different studies.
Lines come from different studies, so protocols differ. Values joined by “and” are separate records of one study, mostly repeats; a detail may differ.
Target: Ephrin type-A receptor 7 (EPHA7, Homo sapiens, UniProt Q15375)
Chain of UniProt Q15375 (whole entry, looked up): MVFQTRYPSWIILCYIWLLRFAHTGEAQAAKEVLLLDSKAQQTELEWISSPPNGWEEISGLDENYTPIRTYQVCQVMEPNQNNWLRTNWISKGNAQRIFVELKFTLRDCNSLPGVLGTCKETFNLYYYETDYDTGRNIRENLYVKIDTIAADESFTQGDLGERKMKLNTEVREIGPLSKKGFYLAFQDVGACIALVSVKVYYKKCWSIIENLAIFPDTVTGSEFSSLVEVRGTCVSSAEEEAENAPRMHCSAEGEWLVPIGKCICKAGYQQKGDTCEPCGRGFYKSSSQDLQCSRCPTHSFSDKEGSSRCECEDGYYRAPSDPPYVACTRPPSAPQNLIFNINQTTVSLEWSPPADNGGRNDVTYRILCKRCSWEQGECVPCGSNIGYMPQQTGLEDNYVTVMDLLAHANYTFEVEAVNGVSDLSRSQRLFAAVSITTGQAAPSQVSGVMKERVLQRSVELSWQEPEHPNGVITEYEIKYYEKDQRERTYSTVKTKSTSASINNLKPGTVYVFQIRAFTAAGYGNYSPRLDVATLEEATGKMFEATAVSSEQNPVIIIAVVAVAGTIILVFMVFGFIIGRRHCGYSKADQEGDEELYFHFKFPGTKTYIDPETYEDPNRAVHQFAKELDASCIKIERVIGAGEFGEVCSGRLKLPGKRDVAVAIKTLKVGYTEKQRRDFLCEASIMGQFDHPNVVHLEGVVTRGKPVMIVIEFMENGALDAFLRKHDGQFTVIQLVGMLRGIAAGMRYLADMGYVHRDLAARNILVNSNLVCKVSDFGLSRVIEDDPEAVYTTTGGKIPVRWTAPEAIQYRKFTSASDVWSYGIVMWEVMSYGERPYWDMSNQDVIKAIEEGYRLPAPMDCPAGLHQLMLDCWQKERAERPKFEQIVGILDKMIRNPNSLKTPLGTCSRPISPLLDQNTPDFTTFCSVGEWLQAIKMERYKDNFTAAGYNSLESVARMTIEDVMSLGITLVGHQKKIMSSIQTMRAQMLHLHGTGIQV

Compound | assay | conditions | scale | quantity | value
Nc1ncc2c(n1)-c1c([nH]c3ccc(C4=CCOCC4)cc13)CCC2 | binding, competition with immobilised ligand | 1 µM |  | remaining binding | 100%
O=C(Cc1ccc(OCc2ccccc2)cc1)NC1(C(=O)O)CCN(C(=O)c2ccc(-c3cccc(Cl)c3)cc2)CC1 | enzyme activity, inhibitor | 10 µM |  | activity vs control | 90%
CCN1CCN(Cc2ccc(C(=O)Nc3ccc(C)c(NCc4cnc5[nH]ccc5c4OC)c3)cc2C(F)(F)F)CC1 | binding, competition with immobilised ligand | 1 µM |  | remaining binding | 100%
O=C=[N][Ru-4]123([n]4c5ccc(O)cc5c5c6c(c7cc(F)c[n+]1c7c54)C(=O)NC6=O)[S+]1CC[S+]2CC[S+]3CC1 (stereo not shown) | enzyme activity | 100 nM, human enzyme, added: 10 µM ATP | relative to: untreated | remaining activity | 113%
COCC12C(=O)NC3C4(C(OC)CC1O)C1CC5(O)C(OC)C(O)C(OC(C)=O)(C1C5OC(=O)c1ccccc1)C3(O)C(OC)C24 (stereo not shown) | kinase activity, inhibitor, ProQinase kinase profiling | 25 µM | relative to: control | remaining activity | 114% and 108%
CCn1cc(C(=O)O)c(=O)c2c(N)c(F)c(NC3CCCCC3)cc21 | kinase activity | 0.1 µM, added: ATP at Km |  | inhibition | 6.4%
CN1CC[C@@H](COc2cnc(C#N)cc2-c2ccn3nc(NC(=O)C4CC4)cc3c2)C1 | enzyme activity, inhibitor | 1 µM |  | inhibition | -6%
COc1ccc(NC(=O)Nc2ccc3c(c2)C(=O)N(C(C)CO)CC(C)C(CN(C)Cc2ccc4c(c2)OCO4)O3)cc1 (stereo not shown) | kinase activity, KinaseProfiler | 0.03 µM, species human | relative to: control | remaining activity | 92%
C=CC(=O)N1CCCC(n2c(=O)c3ncccc3n(Cc3ccc(Oc4ccccc4)cc3)c2=O)C1 (stereo not shown) | cell-free assay, competition with immobilised ligand | 1 µM |  | remaining binding | 88%
COc1cc(Nc2nccc(-c3cnn4nc(OC)ccc34)n2)cc(C(F)(F)F)c1 | binding, competition with immobilised ligand | 1 µM |  | remaining binding | 99%
CC(C)=CC1OC(C)(C)C2C=C3C(=O)C(Cl)=CC(O)C3C3C(O)C4OC4C(=O)C132 (stereo not shown) | cell-free assay, competition with immobilised ligand | 10 µM |  | remaining binding | 93%
Nc1ncc(-c2cc(-c3cnn(CC(F)(F)F)c3)ncc2F)nc1C(=O)NC1CNCC(F)C1 (stereo not shown) | enzyme activity | 1 µM | relative to: DMSO control | remaining activity | 79.6%
NC(=O)[C@@H](O)C[C@H]1CCc2sc3ncnc(O[C@H]4CC[C@H](N5CCOCC5)CC4)c3c21 | enzyme activity, inhibitor | 10 µM |  | inhibition | 9%

A few entries again:
Compound | assay | conditions | scale | quantity | value
COc1cc(Nc2nccc(-c3cnn4nc(OC)ccc34)n2)cc(C(F)(F)F)c1 | binding, competition with immobilised ligand | 1 µM |  | remaining binding | 99%
CC(C)=CC1OC(C)(C)C2C=C3C(=O)C(Cl)=CC(O)C3C3C(O)C4OC4C(=O)C132 (stereo not shown) | cell-free assay, competition with immobilised ligand | 10 µM |  | remaining binding | 93%
